Measurements collected from several papers.
Lines come from different studies, so protocols differ. ± marks the error that the study gave.
HCRTR1: Orexin/Hypocretin receptor type 1 (HCRTR1, Homo sapiens, UniProt O43613)
Sequence of UniProt O43613 (whole entry, looked up): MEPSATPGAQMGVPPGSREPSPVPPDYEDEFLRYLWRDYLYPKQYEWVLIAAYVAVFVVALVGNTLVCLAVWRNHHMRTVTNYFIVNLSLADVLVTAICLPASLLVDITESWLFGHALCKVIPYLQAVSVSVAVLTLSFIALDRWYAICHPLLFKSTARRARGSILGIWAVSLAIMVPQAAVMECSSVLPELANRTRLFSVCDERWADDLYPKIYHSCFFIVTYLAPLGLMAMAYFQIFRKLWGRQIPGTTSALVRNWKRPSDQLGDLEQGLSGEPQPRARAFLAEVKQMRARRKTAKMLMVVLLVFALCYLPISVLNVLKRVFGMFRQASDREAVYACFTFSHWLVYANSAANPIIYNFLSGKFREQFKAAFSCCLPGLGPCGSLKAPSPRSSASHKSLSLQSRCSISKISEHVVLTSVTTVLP
Sequence of UniProt Q7TMS5 (whole entry, looked up): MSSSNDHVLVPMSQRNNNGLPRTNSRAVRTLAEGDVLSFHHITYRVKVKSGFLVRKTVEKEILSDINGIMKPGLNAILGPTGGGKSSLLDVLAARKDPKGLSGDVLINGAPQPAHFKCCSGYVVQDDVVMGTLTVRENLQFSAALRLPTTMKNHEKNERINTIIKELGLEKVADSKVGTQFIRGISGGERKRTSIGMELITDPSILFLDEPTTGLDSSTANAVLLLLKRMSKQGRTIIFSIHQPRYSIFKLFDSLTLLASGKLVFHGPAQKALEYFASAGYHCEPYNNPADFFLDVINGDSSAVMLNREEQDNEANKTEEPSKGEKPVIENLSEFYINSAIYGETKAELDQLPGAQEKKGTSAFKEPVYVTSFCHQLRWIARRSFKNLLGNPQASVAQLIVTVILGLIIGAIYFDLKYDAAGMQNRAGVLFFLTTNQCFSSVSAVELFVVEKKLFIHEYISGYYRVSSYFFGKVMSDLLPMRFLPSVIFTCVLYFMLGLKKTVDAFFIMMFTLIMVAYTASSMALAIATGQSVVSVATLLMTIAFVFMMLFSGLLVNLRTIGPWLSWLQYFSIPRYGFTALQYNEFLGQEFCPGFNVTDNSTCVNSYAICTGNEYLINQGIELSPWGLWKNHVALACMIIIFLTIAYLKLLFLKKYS
Sequence of UniProt P11509 (whole entry, looked up): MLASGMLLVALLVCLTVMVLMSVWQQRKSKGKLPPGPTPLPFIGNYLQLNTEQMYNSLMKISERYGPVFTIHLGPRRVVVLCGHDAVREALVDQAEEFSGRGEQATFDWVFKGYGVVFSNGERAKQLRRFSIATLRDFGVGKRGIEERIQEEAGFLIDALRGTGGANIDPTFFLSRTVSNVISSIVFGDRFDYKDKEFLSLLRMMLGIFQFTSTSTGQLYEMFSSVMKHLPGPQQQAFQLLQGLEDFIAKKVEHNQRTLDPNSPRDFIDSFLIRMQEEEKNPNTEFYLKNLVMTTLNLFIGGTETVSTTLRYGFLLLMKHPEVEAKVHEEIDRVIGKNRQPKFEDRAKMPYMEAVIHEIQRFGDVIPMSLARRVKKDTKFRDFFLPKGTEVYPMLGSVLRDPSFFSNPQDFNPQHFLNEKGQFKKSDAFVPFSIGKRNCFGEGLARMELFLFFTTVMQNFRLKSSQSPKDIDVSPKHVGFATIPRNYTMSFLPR

| SMILES | tested on | assay | test system | conditions | how to read | endpoint | value |
| --- | --- | --- | --- | --- | --- | --- | --- |
| COc1cccc(-c2nc(C)c(C(=O)Nc3ccccc3)s2)c1 | HEK-293T | cell growth or viability, MTS |  | 72 h |  | CC50 | > 300 µM |
| C#CCC(Cc1cnc2nc(N)nc(N)c2n1)c1ccc(C(=O)N[C@@H](CCC(=O)O)C(=O)O)cc1 (stereo partly drawn) | HepG2-NTCP | viability |  |  |  | CC50 | > 25 µM |
| COc1cccc(-c2nc(C)c(C(=O)Nc3cccc(C(F)(F)F)c3)s2)c1 | HEK-293T | cell growth or viability, MTS |  | 72 h |  | CC50 | > 300 µM |
| COC(CN1CCn2cc(C(=O)NCc3ccc(F)cc3F)c(=O)c(O)c2C1=O)OC | HOS | cell growth or viability |  | 48 h |  | CC50 | > 250 µM |
| COc1cc2c(cc1OC)C(Cc1ccc(OC)c([N+](=O)[O-])c1)N(CC(=O)NCc1ccccc1)CC2 (stereo not drawn) | HCRTR1 | calcium signal, antagonist, fluorescence |  |  |  | Kb | 1.5 µM |
| COc1cc(NC(=O)c2sc(-c3cccc(OC)c3)nc2C)cc(OC)c1 | HEK-293T | cell growth or viability, MTS |  | 72 h |  | CC50 | > 300 µM |
| COC(=O)Nc1nc2ccc(C(=O)c3cccs3)cc2[nH]1 | HepG2-NTCP | viability |  |  |  | CC50 | > 25 µM |
| Ic1ccc(-c2nnn(C34CC5CC(CC(C5)C3)C4)n2)cc1 | MDCK | MTT |  | 72 h |  | CC50 | 46 ± 3 µg/mL |
| CC[C@]1(O)C[C@H]2CN(CCc3c([nH]c4ccccc34)[C@@](C(=O)OC)(c3cc4c(cc3OC)N(C=O)[C@H]3[C@@](O)(C(=O)OC)[C@H](OC(C)=O)[C@]5(CC)C=CCN6CC[C@]43[C@@H]65)C2)C1 | HepG2-NTCP | viability |  |  |  | CC50 | > 25 µM |
| Cc1ccc(Nc2nccc(N(C)c3ccc4c(C)n(C)nc4c3)n2)cc1S(N)(=O)=O | Broad substrate specificity ATP-binding cassette transporter ABCG2 (Mus musculus, UniProt Q7TMS5) | bidirectional transport | MDCK-Bcrp1 (murine Bcrp1) | 5 µM, 240 min, together with: erlotinib |  | Papp A-B | 2.95 ± 0.13 ×10⁻⁶ cm/s |
| COc1cccc(-c2nc(C)c(C(=O)Nc3ccc(SC)cc3)s2)c1 | HEK-293T | cell growth or viability, MTS |  | 72 h |  | CC50 | > 300 µM |
| O=C(NCc1c(F)cc(F)cc1F)c1cn2c(c(O)c1=O)C(=O)N1[C@H]3CC[C@H](C3)O[C@@H]1C2 | HOS | cell growth or viability |  | 48 h |  | CC50 | > 250 µM |
| Cc1coc2c1CC[C@@H](C)C2 | Cytochrome P450 2A6 (CYP2A6, Homo sapiens, UniProt P11509) | coumarin 7-hydroxylation, inactivator, reconstituted enzyme |  | 20 µM, 10 min, 30 °C | baseline: without NADPH | remaining activity | 28.5 ± 1.6% |
| COc1cc2c(cc1OC)C(Cc1cccc(OC(C)C)c1)N(CC(=O)NCc1ccccc1)CC2 (stereo not drawn) | HCRTR1 | calcium signal, antagonist, fluorescence |  |  |  | Kb | 1.47 µM |
| COc1cccc(-c2nc(C)c(C(=O)Nc3ccc(OC)c(OC)c3)s2)c1 | HEK-293T | cell growth or viability, MTS |  | 72 h |  | CC50 | > 300 µM |
| Nc1c(Br)cc([N+](=O)[O-])cc1-c1nnn(C23CC4CC(CC(C4)C2)C3)n1 | MDCK | MTT |  | 72 h |  | CC50 | 167 µg/mL |
| CC(C)[C@H](NC(=O)[C@@H]1CCCN1C(=O)[C@H](CCCNC(=N)N)NC(=O)[C@H](CS)NC(=O)[C@H](Cc1c[nH]c2ccccc12)NC(=O)[C@H](CCCNC(=N)N)NC(=O)[C@@H](Cc1ccccc1)NC(=O)[C@H](Cc1c[nH]cn1)NC(=O)[C@H](CCC(=O)O)NC(=O)[C@H](CS)NC(=O)[C@H](CS)NC(=O)[C@H](CCCCN)NC(=O)[C@@H]1CC(=O)N[C@@H](CCCNC(=N)N)C(=O)N[C@@H](C)C(=O)N[C@@H](CC(=O)O)C(=O)N[C@H](Cc2ccc(O)cc2)C(=O)N1)C(N)=O [technetium-99m labelled] |  |  | C57 mice, pancreas | intravenous, 0.037 MBq, 4 h |  | tissue uptake | 0.12 ± 0.05 %ID/g |
| COC(Cn1ccn2cc(C(=O)NCc3ccc(F)cc3F)c(=O)c(O)c2c1=O)OC | HOS | cell growth or viability |  | 48 h |  | CC50 | > 250 µM |
| Cc1c(C(=O)NN2CCCCC2)nn(-c2ccc(Cl)cc2Cl)c1-c1ccc(Cl)cc1 | HepG2-NTCP | viability |  |  |  | CC50 | > 25 µM |
| CC(C)=CCC/C(C)=C/Cn1ccn2cc(C(=O)NCc3ccc(F)cc3F)c(=O)c(O)c2c1=O | HOS | cell growth or viability |  | 48 h |  | CC50 | > 250 µM |
| Nc1ccc(-c2nnn(C34CC5CC(CC(C5)C3)C4)n2)cc1Cl | MDCK | MTT |  | 72 h |  | CC50 | < 3 µg/mL |

Some of these lines once more:
| SMILES | tested on | assay | test system | conditions | how to read | endpoint | value |
| --- | --- | --- | --- | --- | --- | --- | --- |
| COc1cccc(-c2nc(C)c(C(=O)Nc3ccc(SC)cc3)s2)c1 | HEK-293T | cell growth or viability, MTS |  | 72 h |  | CC50 | > 300 µM |
| O=C(NCc1c(F)cc(F)cc1F)c1cn2c(c(O)c1=O)C(=O)N1[C@H]3CC[C@H](C3)O[C@@H]1C2 | HOS | cell growth or viability |  | 48 h |  | CC50 | > 250 µM |
| Cc1coc2c1CC[C@@H](C)C2 | Cytochrome P450 2A6 (CYP2A6, Homo sapiens, UniProt P11509) | coumarin 7-hydroxylation, inactivator, reconstituted enzyme |  | 20 µM, 10 min, 30 °C | baseline: without NADPH | remaining activity | 28.5 ± 1.6% |
